Measurements pooled from the literature.
Each numbered part is a random draw from the data of one study; scales do not carry over between parts. Substitutions count along the parent as printed.

Block 1 — method: protein-binding microarray; form: double-stranded DNA, one strand shown; medium: in vitro; tested at: not given; reading: higher = stronger binding
Target: Protein C-ets-1 (ETS1, Homo sapiens, UniProt P14921, residues 1-441, Y397A, full length assumed)
UniProt P14921, sequence (whole entry, unmodified, looked up): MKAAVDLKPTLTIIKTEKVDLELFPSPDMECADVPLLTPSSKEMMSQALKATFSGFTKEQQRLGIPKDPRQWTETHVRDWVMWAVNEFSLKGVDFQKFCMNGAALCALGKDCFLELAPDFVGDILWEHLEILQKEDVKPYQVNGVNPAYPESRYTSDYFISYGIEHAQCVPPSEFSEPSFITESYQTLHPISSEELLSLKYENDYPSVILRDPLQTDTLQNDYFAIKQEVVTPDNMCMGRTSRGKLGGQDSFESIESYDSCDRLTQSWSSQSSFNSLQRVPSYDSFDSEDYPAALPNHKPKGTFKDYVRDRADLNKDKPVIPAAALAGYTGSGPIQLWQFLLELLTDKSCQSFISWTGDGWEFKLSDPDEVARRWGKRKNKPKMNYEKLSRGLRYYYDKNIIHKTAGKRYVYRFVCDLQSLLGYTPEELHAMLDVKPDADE
Setting: k-mer, scored over probes, only values ≥0.25
| Oligonucleotide | E-score |
| --- | --- |
| ATATCAAC | 0.284 |
| CCGTTGTC | 0.286 |
| GCAAATAC | 0.261 |
| TGACACAA | 0.355 |
| GCTTCCGA | 0.28 |
| ATGTGTTA | 0.253 |
| ACAATCGC | 0.254 |
| CGCCCACC | 0.261 |
| CATGTCAC | 0.296 |
| AATTGTCG | 0.38 |
| ACCGACAA | 0.347 |
| CGGTAACA | 0.26 |
| TGTCAACA | 0.317 |
| ACCAACAT | 0.285 |
| AACTACAA | 0.259 |
| AACTTCCT | 0.37 |
| AAGTTGCA | 0.275 |
| AACGCCAA | 0.331 |
| GTGACACA | 0.285 |
| CAGTACAC | 0.276 |
| ATTGTCGC | 0.275 |
| TCATGACA | 0.332 |
| TTGCAAAA | 0.303 |
| ACGGCAAC | 0.294 |
| TCTACAAA | 0.26 |

Block 2 — method: DHFR PCA, deep sequencing; medium: yeast; added: (+)-ABA 0.0091 µM; relative to: wild-type fitted maximum; reading: higher = stronger binding
Target: ABI1, truncated, D143A, DHFR fusion (Arabidopsis thaliana)
Setting: methotrexate growth selection, single substitutions
Starting sequence: PYL1, truncated, DHFR fusion (Arabidopsis thaliana); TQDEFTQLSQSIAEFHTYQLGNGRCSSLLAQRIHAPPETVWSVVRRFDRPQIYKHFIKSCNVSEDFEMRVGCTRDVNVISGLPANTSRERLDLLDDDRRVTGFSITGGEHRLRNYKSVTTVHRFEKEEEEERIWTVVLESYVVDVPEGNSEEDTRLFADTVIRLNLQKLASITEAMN; partner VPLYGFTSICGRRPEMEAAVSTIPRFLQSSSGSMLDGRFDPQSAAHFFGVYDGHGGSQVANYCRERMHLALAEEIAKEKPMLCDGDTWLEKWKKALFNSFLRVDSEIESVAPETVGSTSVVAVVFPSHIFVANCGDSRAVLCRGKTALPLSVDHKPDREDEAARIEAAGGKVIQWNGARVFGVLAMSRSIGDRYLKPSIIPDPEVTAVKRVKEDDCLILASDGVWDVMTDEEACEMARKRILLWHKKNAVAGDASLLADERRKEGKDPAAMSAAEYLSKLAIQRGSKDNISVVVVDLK
| Change | relative binding score [%] |
| --- | --- |
| S11K | -2.84 |
| L20F | 7.62 |
| E129L | 11.6 |
| E139Y | -0.922 |
| A84P | 29.5 |
| P36S | 22 |
| T135G | -8.03 |
| P36F | -0.409 |
| Q2W | 52.6 |
| H55R | 16.5 |
| P83N | 14.1 |

Block 3 — target: CCNE2, cyclin fold, Cln2 fusion (human); method: yeast growth competition, sequencing; medium: yeast; setting: strong parent motif; relative to: not given; reading: higher = stronger binding
Starting sequence: CDKN1B docking peptide (human); PSACRNLFGPVDH
| Change | normalised enrichment score |
| --- | --- |
| F8P | -0.103 |
| H13F | 2.02 |
| V11I | 1.76 |
| N6I | 1.59 |
| V11A | 0.993 |
| G9A | 0.964 |
| R5D | -0.262 |
| N6D | 0.429 |
| C4S | 0.282 |
| S2N | 1.43 |
| R5L | 0.0477 |
| H13I | 1.35 |
| S2Y | 0.314 |
| G9W | 0.301 |
| A3K | 0.209 |
| G9F | 0.876 |
| N6R | 2.67 |
| S2G | 0.898 |
| R5F | -0.0895 |
| S2F | 0.863 |
| V11N | 1.28 |
| H13P | 1.51 |
| R5S | -0.175 |
| F8Y | -0.285 |
| D12Y | 1.39 |

Block 4 — method: protein-binding microarray; form: double-stranded DNA, one strand shown; medium: in vitro; tested at: 2200 nM top; setting: 60-bp whole probe; added: salmon DNA 0.4 mg/ml; relative to: random background probes; reading: higher = stronger binding; all sequences stand within: GCCTAGCAC … GTCTTGATTCGCTTGACGCTGCTG
Target: Interferon regulatory factor 7, full length, phosphomimetic (IRF7, Homo sapiens, UniProt Q92985, residues 1-503, S471D/S472D/S475D/S476D/S477D/S483D/S484D/S487D)
UniProt Q92985, sequence (whole entry, unmodified, looked up): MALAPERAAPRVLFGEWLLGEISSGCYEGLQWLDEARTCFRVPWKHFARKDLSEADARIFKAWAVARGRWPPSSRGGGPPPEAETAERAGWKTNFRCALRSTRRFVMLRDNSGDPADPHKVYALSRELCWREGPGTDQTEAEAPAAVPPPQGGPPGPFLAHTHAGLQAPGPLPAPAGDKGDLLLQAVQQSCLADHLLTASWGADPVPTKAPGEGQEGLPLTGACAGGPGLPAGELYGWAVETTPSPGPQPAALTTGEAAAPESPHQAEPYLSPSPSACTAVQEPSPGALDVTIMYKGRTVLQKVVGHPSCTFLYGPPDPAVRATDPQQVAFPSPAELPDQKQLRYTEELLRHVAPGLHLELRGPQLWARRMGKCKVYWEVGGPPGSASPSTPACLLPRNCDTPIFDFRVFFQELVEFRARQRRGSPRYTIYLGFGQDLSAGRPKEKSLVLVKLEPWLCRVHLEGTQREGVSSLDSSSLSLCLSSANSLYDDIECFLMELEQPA
| Oligonucleotide | fitted relative affinity |
| --- | --- |
| GACGATCGCAGTTTCGAGACGTGCTAG | 3.05 z-score |
| TGAGGACTGGGTATCGGTTAGTGCTAG | -0.406 z-score |
| GACGATTTCGGGTATGGAGACGTGCTA | 2.63 z-score |
| GCAAACCCCATTCTCAGCCCGTGCTAG | 0.904 z-score |
| TGAGCACCCAGAGCCGCCTGGTGCTAG | -0.901 z-score |
| GAATGAATGGACATTTCTTCGTGCTAG | 0.682 z-score |
| GACGGTCCCCTTCTCCTGACGTGCTAG | 0.493 z-score |
| GACGATCTCAGTTTAGAGACGTGCTAG | 0.189 z-score |
| TTAGATATCGGGCCTGGATTAGTGCTA | -0.4 z-score |
| TATATTCTATTCCTTTAACAGTGCTAG | 2.18 z-score |
| GACGATTTCAGGTCCGAGACGTGCTAG | 0.83 z-score |
| GTTAGAATGTCCTTTCTCCATGTGCTA | 1.05 z-score |
| TTAGGATTCCTACTGCTTTAGTGCTAG | 0.614 z-score |
| CAAGTTTCTCCTTTCCAAATGTGCTAG | 4.27 z-score |
| TTAGGTCTCTTTTTCCTTTAGTGCTAG | 1.93 z-score |
| TACGATTTCGGGTATCGAGACGTGCTA | 2.85 z-score |
| TTAGAACTGGGGTTGCGATTAGTGCTA | 0.018 z-score |
| TTAGGACTGCTTCTCTTTTAGTGCTAG | 0.5 z-score |
| TTAGGGCTGCTACTGCTTTAGTGCTAG | -0.827 z-score |

Some of these lines once more (block 4):
| Oligonucleotide | fitted relative affinity |
| --- | --- |
| TGAGGACTGGGTATCGGTTAGTGCTAG | -0.406 z-score |
| TTAGGTCTCTTTTTCCTTTAGTGCTAG | 1.93 z-score |
| GCAAACCCCATTCTCAGCCCGTGCTAG | 0.904 z-score |
| GTTAGAATGTCCTTTCTCCATGTGCTA | 1.05 z-score |
| GACGATTTCAGGTCCGAGACGTGCTAG | 0.83 z-score |
| GACGATTTCGGGTATGGAGACGTGCTA | 2.63 z-score |
| TACGATTTCGGGTATCGAGACGTGCTA | 2.85 z-score |
| GAATGAATGGACATTTCTTCGTGCTAG | 0.682 z-score |
| GACGATCGCAGTTTCGAGACGTGCTAG | 3.05 z-score |
| TTAGGACTGCTTCTCTTTTAGTGCTAG | 0.5 z-score |
| GACGGTCCCCTTCTCCTGACGTGCTAG | 0.493 z-score |
